Published values gathered from unrelated publications.
A part holds a random share of what one study measured. Substitutions count along the parent as printed.

Set 1 — technique: protein-binding microarray; molecule type: double-stranded DNA, one strand shown; medium: in vitro; tested at: 250 nM; notes: 60-bp whole probe; together with: salmon DNA 0.4 mg/ml; baseline: random background probes; reading: higher = stronger binding; all sequences stand within: GCCTAGCAC … GTCTTGATTCGCTTGACGCTGCTG
Target: Interferon regulatory factor 7, full length, phosphomimetic (IRF7, Homo sapiens, UniProt Q92985, residues 1-503, S101K/S471D/S472D/S475D/S476D/S477D/S483D/S484D/S487D)
Chain of UniProt Q92985 (whole entry, unmodified, looked up): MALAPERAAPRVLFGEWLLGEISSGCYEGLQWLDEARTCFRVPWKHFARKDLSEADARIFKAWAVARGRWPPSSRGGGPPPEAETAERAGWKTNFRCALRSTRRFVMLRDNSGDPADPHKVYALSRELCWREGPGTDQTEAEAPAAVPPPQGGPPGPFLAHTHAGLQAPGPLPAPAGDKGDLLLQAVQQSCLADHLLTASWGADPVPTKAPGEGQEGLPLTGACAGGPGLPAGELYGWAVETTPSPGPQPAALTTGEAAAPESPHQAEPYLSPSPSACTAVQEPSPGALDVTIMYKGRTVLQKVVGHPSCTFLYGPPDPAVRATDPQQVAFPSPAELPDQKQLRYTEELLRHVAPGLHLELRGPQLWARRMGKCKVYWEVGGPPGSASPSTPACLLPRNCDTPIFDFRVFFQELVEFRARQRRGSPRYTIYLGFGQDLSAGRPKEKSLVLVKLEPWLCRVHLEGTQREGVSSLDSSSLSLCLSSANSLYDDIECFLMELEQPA
Strand	log fluorescence
TCAGCTTACAATATAAAACTGTGCTAG	0.0424 z-score
TTAGGACTGGGTCTCGGTTCGTGCTAG	2.84 z-score
TCCGTATGGATGGCCAATTGGTGCTAG	-0.445 z-score
GACGATGTCGGGACTGGAGACGTGCTA	-0.69 z-score
TTAGGTTTCGGTATCGATTAGTGCTAG	10.9 z-score
GACGATTTCGGGTATCGAAACGTGCTA	1.39 z-score
TATGTTCCCTATATAAGGCGGTGCTAG	2.42 z-score
TCAGATTTCAATTAAAAACTGTGCTAG	0.498 z-score

Set 2 — technique: universal PBM; molecule type: double-stranded DNA, one strand shown; medium: in vitro; tested at: not given; reading: higher = stronger binding
Target: Sal-like protein 4, full length isoform B (SALL4, Homo sapiens, UniProt Q9UJQ4-2, residues 1-616)
Notes: 8-mer, flanks averaged, mean of replicates
Construct (chain): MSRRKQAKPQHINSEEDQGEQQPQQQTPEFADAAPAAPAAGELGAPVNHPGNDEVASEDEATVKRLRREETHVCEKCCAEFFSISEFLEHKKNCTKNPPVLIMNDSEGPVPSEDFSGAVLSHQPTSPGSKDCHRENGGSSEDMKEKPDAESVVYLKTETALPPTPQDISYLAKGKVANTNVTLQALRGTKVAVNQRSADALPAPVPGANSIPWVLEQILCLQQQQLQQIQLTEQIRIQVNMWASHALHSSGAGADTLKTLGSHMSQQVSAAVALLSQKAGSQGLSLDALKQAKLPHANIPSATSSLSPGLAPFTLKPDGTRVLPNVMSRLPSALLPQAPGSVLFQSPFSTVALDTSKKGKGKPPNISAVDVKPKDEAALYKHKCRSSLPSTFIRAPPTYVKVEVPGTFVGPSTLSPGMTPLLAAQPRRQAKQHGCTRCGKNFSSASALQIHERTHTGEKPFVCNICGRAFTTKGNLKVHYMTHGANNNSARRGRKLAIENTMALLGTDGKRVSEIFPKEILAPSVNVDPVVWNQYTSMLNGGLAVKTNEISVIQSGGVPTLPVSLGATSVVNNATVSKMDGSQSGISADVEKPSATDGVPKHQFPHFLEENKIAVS
Strand	E-score
AAGCACTC	-0.166
GCTCATTA	0.127
TGCCCCCA	0.0333
AAGTTATC	0.139
GCATGGGA	-0.15
ACGCTTTC	-0.0778
TCCGATAA	0.155
CGCACAAC	0.0232

Single results of other studies
P1: PafA, mature enzyme, eGFP fusion (Elizabethkingia meningoseptica, UniProt Q9KJX5); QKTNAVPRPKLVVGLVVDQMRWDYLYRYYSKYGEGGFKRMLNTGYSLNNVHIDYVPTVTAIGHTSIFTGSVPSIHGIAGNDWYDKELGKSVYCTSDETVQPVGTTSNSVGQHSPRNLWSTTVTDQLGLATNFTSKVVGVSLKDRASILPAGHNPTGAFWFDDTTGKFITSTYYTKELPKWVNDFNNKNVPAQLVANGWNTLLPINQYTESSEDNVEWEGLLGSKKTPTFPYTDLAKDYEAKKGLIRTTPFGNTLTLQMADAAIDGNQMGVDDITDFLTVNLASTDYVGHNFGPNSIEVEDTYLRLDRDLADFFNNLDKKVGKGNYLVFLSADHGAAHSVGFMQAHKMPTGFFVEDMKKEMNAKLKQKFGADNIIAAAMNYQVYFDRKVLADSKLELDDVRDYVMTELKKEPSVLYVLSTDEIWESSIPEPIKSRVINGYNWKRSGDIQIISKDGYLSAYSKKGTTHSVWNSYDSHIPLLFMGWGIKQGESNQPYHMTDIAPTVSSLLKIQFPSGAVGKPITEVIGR
P2: viral docking peptide; PGASRRLFGSSAD; partner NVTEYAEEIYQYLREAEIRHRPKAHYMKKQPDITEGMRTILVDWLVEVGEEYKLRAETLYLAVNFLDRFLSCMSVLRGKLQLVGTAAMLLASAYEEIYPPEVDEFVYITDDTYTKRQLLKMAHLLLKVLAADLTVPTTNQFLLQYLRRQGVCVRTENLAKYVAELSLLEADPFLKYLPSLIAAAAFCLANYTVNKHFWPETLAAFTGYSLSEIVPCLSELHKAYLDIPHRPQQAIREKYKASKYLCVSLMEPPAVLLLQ
Change	target	test	system	setting	scale	quantity	result
P1 V122A	inorganic phosphate, free oxyanion	microfluidic competitive inhibition	in vitro, cell-free expressed	not given, derived from inhibition constants, unchanged parent 615000 nM	lower = stronger binding	phosphate dissociation constant	561 µM
P2 R5K	CCNA1, cyclin fold, Cln2 fusion (human)	yeast growth competition, sequencing	yeast	weak parent motif	baseline: not given, higher = stronger binding	normalised enrichment score	-0.0398
